# Assay results pooled from the literature.
# Each numbered part is a random draw from the data of one study; scales do not carry over between parts.

# Study 1
# Target: RING finger protein unkempt homolog, zinc fingers 1-6, GST-SBP tag (UNK, Homo sapiens, UniProt Q9C0B0, residues 30-357)
# Technique: RNA Bind-n-Seq
# Form: RNA
# Matrix: in vitro
# Concentration: not given
# Setting: RNA with constant flanks, human and mouse sites, ends assumed
# Relative to: input RNA pool
# Reading: higher = stronger binding
# All sequences stand within: GGGAGUUCUACAGUCCGACGAUC … CAACAGAGGAUUGAGCAUCA
# Target sequence (chain): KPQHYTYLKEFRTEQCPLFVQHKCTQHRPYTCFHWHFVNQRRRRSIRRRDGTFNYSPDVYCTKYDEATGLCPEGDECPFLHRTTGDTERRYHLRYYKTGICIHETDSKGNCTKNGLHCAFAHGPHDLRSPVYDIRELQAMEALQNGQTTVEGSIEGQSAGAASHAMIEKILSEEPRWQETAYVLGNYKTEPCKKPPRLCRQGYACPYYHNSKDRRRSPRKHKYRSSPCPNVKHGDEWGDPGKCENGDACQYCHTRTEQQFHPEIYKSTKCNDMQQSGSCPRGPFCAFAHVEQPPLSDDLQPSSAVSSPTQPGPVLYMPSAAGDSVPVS
Strand,bound/input enrichment [ratio]
GCGGUCAUUUUCGGGCCUGAAGGGACCCCGUUUGAGGAUGGAACAUUUAAACUUACAAUAGAAUUCACUGAAGAAUAUCCAAAUAAACCACCUACAGUUAGAUUUGUCUCUAAGAUGUUC,1.85
UCCACCAAGAGCCUCUUCCUCGGCCAGAAGCUGAACCUUAUUCACAGUGAAAUCAGUAAUUUAGCCGGCUUUGAGGUGGAGGCCAUAAUCAAUCCUACCAAUGCUGACAUUGACCUUAAA,0.124
GACUCAUGUGUCUUACGUGGAGUUAUGAUUAACAAGGAUGUGACCCAUCCAAGGAUGCGCCGCUAUAUUAAGAAUCCUCGAAUUGUGCUAUUGGAUUCUUCUUUGGAGUACAAGAAAGGA,0.0702
GCCAUAAUCCCCUACAUCCCUACUCUCAUCACUCAGCUUACACAGAAGCUAUUAGCUGUUAGUAAGAACCCAAGCAAACCUCACUUUAAUCACUACAUGUUUGAAGCAAUAUGUUUAUCC,0.655
GCUGAAGCUAAACCCUCUGUCCACAUUGUCAUGAACUUGCCAGCUAAGGCCAUAGAGUUUCUCAGUGUUUUCAGAUCACUUUUGGAUGGGCAGCCUUGCAGCACGGAGCUCCUCCCCACA,0.196

# Study 2
# Target: Interferon regulatory factor 5, full length, phosphomimetic (IRF5, Homo sapiens, UniProt Q13568-2, residues 1-514, S451D/S453D/S456D/S462D)
# Technique: protein-binding microarray
# Form: double-stranded DNA, one strand shown
# Matrix: in vitro
# Concentration: 940 nM top
# Setting: 60-bp whole probe
# Together with: salmon DNA 0.4 mg/ml
# Relative to: random background probes
# Reading: higher = stronger binding
# All sequences stand within: GCCTAGCAC … GTCTTGATTCGCTTGACGCTGCTG
Strand,fitted relative affinity [z-score]
GACGATATCAGTATCGAGGCGTGCTAG,1.36
GACGGACTGCTACTGGTGACGTGCTAG,-0.538
GACGGTTTCGACACTGGGGAAGTGCTA,7.21
GACTGTTTCGGGACTGGGGACGTGCTA,2.57
TCAGCTTCCTCTTTTTTACTGTGCTAG,1.24
GACGGTTCCGGTTTAGGGACGTGCTAG,3.74

# Study 3
# Target: Histone acetyltransferase KAT6A, both winged helices, GST fusion (KAT6A, Homo sapiens, UniProt Q92794, residues 1-181)
# Technique: protein binding microarray
# Form: double-stranded DNA, one strand shown
# Matrix: in vitro
# Concentration: not given
# Setting: 8-mer, flanks averaged, mean of 2 arrays, mostly near background
# Relative to: not given
# Reading: higher = stronger binding
# Construct (chain): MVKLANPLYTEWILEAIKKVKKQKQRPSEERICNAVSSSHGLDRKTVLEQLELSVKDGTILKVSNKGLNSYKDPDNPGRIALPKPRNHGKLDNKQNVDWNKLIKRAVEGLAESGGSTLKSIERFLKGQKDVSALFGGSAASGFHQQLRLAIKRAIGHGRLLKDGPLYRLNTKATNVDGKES
Strand,E-score
TACGCCGA,0.261
ACTTGGAG,-0.182
AGTCCCCG,0.0523
ATACCTTA,-0.22
AGTATATA,0.0327
GGCTGTGA,0.00749

# Single results of other studies
Molecule,target,test,system,setting,scale,measurement,result
"PhoQ, residues 284 288 289 292 302 303 SSTLLI","PhoP, residues 12 14 15 18 19 LYFRQ (Escherichia coli, UniProt P23836)","Sort-seq, measured: YFP reporter",E. coli,"PhoQ-PhoP variant library, together with: 10 µM Mg2+","relative to: high Mg2+ state, higher = stronger signaling",fold induction,7.07
